# Experimental data of several laboratories.
# Lines come from different studies, so protocols differ. Values joined by “and” are separate records of one study, mostly repeats; a detail may differ. ± gives the spread as reported.
# USP49 ZnF-UBD domain: Ubiquitin carboxyl-terminal hydrolase 49, ZnF-UBD domain (USP49, Homo sapiens, UniProt Q70CQ1)
# UniProt Q70CQ1, sequence (whole entry, looked up): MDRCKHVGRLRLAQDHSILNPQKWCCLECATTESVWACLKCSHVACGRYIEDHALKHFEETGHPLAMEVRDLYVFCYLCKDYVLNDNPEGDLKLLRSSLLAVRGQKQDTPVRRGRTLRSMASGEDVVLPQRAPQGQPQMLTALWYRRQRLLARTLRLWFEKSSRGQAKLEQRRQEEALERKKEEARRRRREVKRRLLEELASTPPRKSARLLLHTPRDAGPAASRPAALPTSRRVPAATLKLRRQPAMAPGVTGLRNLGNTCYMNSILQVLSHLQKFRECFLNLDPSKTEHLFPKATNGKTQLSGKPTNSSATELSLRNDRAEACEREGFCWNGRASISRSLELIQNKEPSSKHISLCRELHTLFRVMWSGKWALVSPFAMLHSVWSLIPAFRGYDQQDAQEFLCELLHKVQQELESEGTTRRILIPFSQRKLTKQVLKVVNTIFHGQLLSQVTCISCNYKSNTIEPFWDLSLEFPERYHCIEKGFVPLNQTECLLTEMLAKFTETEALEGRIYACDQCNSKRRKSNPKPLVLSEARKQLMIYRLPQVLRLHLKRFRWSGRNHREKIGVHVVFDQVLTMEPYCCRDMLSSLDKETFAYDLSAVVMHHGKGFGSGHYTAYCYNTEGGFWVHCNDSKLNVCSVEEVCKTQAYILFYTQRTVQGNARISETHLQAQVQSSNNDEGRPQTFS
SMILES,tested on,test,system,conditions,how to read,endpoint,value
Cn1nc2ccccc2c1[C@H]1COC(C)(C)[C@@H](c2ccc(-c3ccccc3)cc2)N1,,"shake-flask, 1-octanol/buffer",,pH 7.4,,logD,> 4.7
Cc1nc2ccc(OCc3ccc(C(F)(F)F)cc3)cc2[nH]1,,,"Balb/c mouse, male, lungs","intravenous, 1 mg/kg, 3 h",,tissue concentration,361 ± 77.2 ng/g
CN(C(=O)C(C)(C)c1cc(C(F)(F)F)cc(C(F)(F)F)c1)c1cnc(N2C[C@H]3COCCN3C[C@H]2CO)cc1-c1ccc(F)cc1[14CH3],,"metabolite formation, item: M30/34 formation",human liver microsomes,"1 min, pH 7.4",,Km,0.319 µM
N#Cc1c2n(c3c(=O)n(CC(=O)O)cnc13)CCCC2,USP49 ZnF-UBD domain,,,,,Kd,> 1000 µM
CCN1/C(=C/C(C)=O)Sc2ccc(F)cc21,,,cynomolgus monkey,"oral, 100 mg/kg, 1 h post-dose",,QT interval,233 ± 15 ms
COC(=O)CC1CCN(C(=O)c2cc(-c3cccs3)nn2-c2ccccc2)CC1,,LC-MS,"BALB/c mice, male and female, plasma","intraperitoneal, 1 mg/kg single dose, up to 24 h",,parent compound in plasma,not detected
C=CC(=O)NC1CCN(c2ncc3ncnc(Nc4ccc(Oc5ccc6c(c5)ncn6C)c(C)c4)c3n2)CC1,,,"human, male, plasma","oral, 30 mg, adjusted geometric means",reference: fed over fasted,AUC0-tz ratio,74.2%
CNCc1ccc(-c2[nH]c3cc(F)cc4c3c2CCNC4=O)cc1,,item: Nausea,human patients,"oral, dose not given, all grades, all doses",,patients with adverse event,51.8%
Cc1cc(C(=O)NC(C)(C)COc2cccc3c2C(N)=NS(=O)(=O)N3)cc(C)n1,,,"Sprague-Dawley rat, male, plasma","intravenous, 1 mg/kg",,Vz,0.536 L/kg
C[Si]1(C)O[Si](C)(C)O[Si](C)(C)O[Si](C)(C)O[Si](C)(C)O1,,,air/water,concentration not given,,enthalpy of phase change,29.6 kcal/mol
CC(C)(C(=O)N1CCOc2c(C#N)cncc2C1)C(F)F,,item: ALT increased,human,"oral, 10 mg once daily, 14 days, multiple ascending dose",,subjects with adverse event,0%
Cc1nc(-c2cnc(NC(C)C)n(C)c2=O)ccc1Oc1ccnc(-c2cnn(C)c2)c1,,,"rat (Sprague-Dawley, male), plasma","oral, 10 mg/kg",,Vz,1.02 L/kg
COc1ccc2c3c([nH]c2c1)[C@H](CC(C)C)N1C(=O)[C@H](CC(=O)NC(C)C)NC(=O)[C@@H]1C3,,,wild-type mouse,"oral, 100 mg/kg daily, 23 days",,kidney to body weight ratio,1.26% and 1.2%
c1cc(-c2ccc3ncnc(Nc4ncco4)c3c2)cc(N2CC3(COC3)C2)c1,,,human liver microsomes,,,CLint,36 µL/min/mg
CCOC(=O)N1C[C@@H](c2cccc(Br)c2)N[C@@H](c2ccc(N3CCCC3)cc2)C1,,"shake-flask, 1-octanol/buffer",,pH 7.4,,logD,> 4.7
CNc1ccc(-c2nc3ccc(O)cc3s2)cc1 [carbon-11 labelled],,ex vivo biodistribution,"APP/PS1 mouse, AD model, spleen","intravenous, 30 min",,SUV,0.232 ± 0.104
NC(=O)c1ccc(NCCCN2CCOCC2)c([N+](=O)[O-])c1,,,octanol/buffer,pH 7.4,,logD,0.85
COc1cc(N2CCC3(CCN(C)CC3)CC2)ccc1Nc1ncc(Cl)c(Nc2ccccc2P(C)(C)=O)n1,,population PK model,human,"oral, final model without outliers",,V1/F,347 L
O=C(c1cc(-c2ccc3c(c2)OCCO3)nc2ccccc12)N1CCC(Cc2ccccc2)CC1,,dynamic light scattering,buffer,20 µM,,hydrodynamic radius,4.45 nm
FC(F)(F)c1ccc(CNc2ccc(Cc3c[nH]c4ncc(Cl)cc34)cn2)cn1,,item: Fatigue,"patients with advanced solid tumours, non-TGCT cohort","oral, 1000 mg/day, grade 3 or higher",,treatment-related adverse events,6%
COCCOc1cnc2ccn([C@H](C)c3nnc4c(F)cc(-c5cnn(C)c5)cn34)c(=O)c2c1,,,"patients, plasma","oral, 400 mg once daily, day 1 24 h postdose",,Ctrough,220 ng/mL
Cc1cc(NC2CCN(C(=O)OC3CCN(C(=O)/C=C/CN(C)C)C3)CC2)n2ncc(C(C)C)c2n1 (stereo not shown),,"Phase I dose escalation CTCAE v4.0, item: urinary tract infection",patients with advanced solid tumours,"dose not given, TIW dosing any grade",,patients with adverse event,18%
O=C(O)CSc1nnc(Br)n1-c1ccc(C2CC2)c2ccccc12,,,"KM mouse, chronic hyperuricaemia model","dose not given, day 6",,body weight,28.5 g and 23.7 g and 30.8 g and 28 g and 29.5 g and 23.6 g
CCOc1c([C@H](C)n2nc(C)c3c(N)ncnc32)cc(Cl)c(F)c1[C@@H]1CNC(=O)C1,,,"patients, monotherapy","oral, 20 mg once daily, cycle 1 day 1",,Tmax median,1 h
CCc1nc(C(N)=O)c(Nc2ccc(N3CCC(N4CCN(C)CC4)CC3)c(OC)c2)nc1NC1CCOCC1,,,"Japanese patients, plasma","oral, 40 mg, cycle 1 day 28, multiple doses, median",,Cmax,158 ng/mL
Cc1cc(-c2nccc3c2ccn3CC(=O)Nc2ccc(-c3cnccn3)cn2)ccn1,,,human,"15 mg once daily, multiple ascending dose",,general or administration site disorders,66.7%
CCC(C)n1ncn(-c2ccc(N3CCN(c4ccc(OCC5COC(Cn6cncn6)(c6ccc(Cl)cc6Cl)O5)cc4)CC3)cc2)c1=O (stereo not shown),,,healthy human volunteers,"oral, 200 mg, event Nausea, continued dosing",,adverse events,0%
Clc1cc(Cl)cc([C@H]2COC[C@@H](C3CCCCC3)N2)c1,,"shake-flask, 1-octanol/buffer",,pH 7.4,,logD,> 4.7
c1ccc2c(c1)ccc1ccccc12,,,fresh water,"12 (unit not given), 20 °C, S30-2 sampler, 30 µm",,log K(PDMS-water),3.8 ± 0.01
CN1C(=O)[C@@H](NC(=O)c2nnc(Cc3ccccc3)[nH]2)COc2cccnc21,,phase I multiple ascending dose,"human, male and female","oral, 600 mg, 14 days",,participants with any TEAE,75%
CCOC(=O)N1C[C@@H](c2ccc(F)c(C#N)c2)N[C@@H](c2ccc(-c3ccccc3)cc2)C1,,"shake-flask, 1-octanol/buffer",,pH 7.4,,logD,> 4.7
CC(C)(C)c1ccc(O)c(CN(Cc2cc(C(C)(C)C)ccc2O)C2CCC(NC(N)=O)CC2)c1 (stereo not shown),,,mouse brain,"2000 ng/g, time not given, freeze-thaw, 3 cycles, -20 °C",,recovery,92.68 ± 0.56%
Cc1cc(-c2nnc(N)nc2-c2ccc(F)cc2)cc(Cl)n1,,item: Dizziness,"human phase Ia/Ib NSCLC, post-immunotherapy","oral, 100 mg once daily",,patients with treatment-related adverse events,11.8%
C[C@@H](O)[C@H](NC(=O)c1ccc(C#Cc2ccccc2)cc1)C(=O)NCC1(C)NC(=O)NC1=O (stereo partly shown),,,octanol/buffer,pH 7.4,,logD,2.72
CN(C(=O)n1cnc(-c2ccc[n+]([O-])c2)c1)[C@H]1CC[C@H](O)CC1,,,"rat, cerebellum","oral, 10 mg/kg single dose, 4 h",,tissue concentration,7.2 ± 3.6 ng/g
Cn1cc(-c2cn3nccc3c(-c3cnn([C@]4(CC#N)C[C@@H](C#N)C4)c3)n2)cn1,,,"healthy humans fed, plasma","oral, 100 mg once daily, day 10, geometric mean",,peak to trough ratio,25.3
NC[C@@]1(CC(=O)O)[C@@H]2CC[C@H]3C[C@@H]2[C@@H]1C3,,,"human, mild renal impairment, plasma",dose not given,reference: normal renal function,unbound Cmax increase,4.4%
Cn1cnc2c(F)c(Nc3ccc(Br)cc3Cl)c(C(=O)NOCCO)cc21,,population PK model,"human, plasma","oral, sequential zero-first-order absorption, fed",,absorption lag time,0.66 h
CN1C[C@H](COc2nccc3c(NCc4ccco4)cc(Cl)nc23)OC1=O,,,"rabbit NZW female, isolated Langendorff heart","10 µM, 15 min",,QT interval,196 ms
CCc1c(-c2ccccc2)c(-c2ccccc2)nn1-c1ccccc1-c1cccc(OCC(=O)O)c1,,,"Sprague-Dawley rat, -Brain homogenate","oral, 10 mg/kg, 8 h",,concentration,4.05 ng/mL
O=C(O)CN1CCCN2CCN(Cc3ccccc3)CCCN(CC1)Cc1cccc(n1)C2,,,64Cu complex in rat plasma,"24 h, 37 °C",,intact complex,98%
Cc1ccc([C@@H]2O[C@H](CO)[C@@H](O)[C@H](O)[C@H]2O)cc1Cc1ccc(-c2ccc(F)cc2)s1,,,Japanese type 2 diabetes patients,"200 mg, day 5, 24 h urine collection",reference: baseline,urinary magnesium excretion change,-6.77 mg
O=C(N[C@H](Cc1c[nH]c2ccccc12)C(=O)Nc1ccncc1)c1ccc(-c2ccc(F)c(Cl)c2)cc1F,,,"Swiss Webster mouse, female, fat","oral, 50 mg/kg, 2 h, 20% Kolliphor vehicle",,concentration,5.9 µM
C[C@@H](N)C1CCN(S(=O)(=O)c2cccc3cnccc23)CC1,,item: Bradycardia,healthy volunteers,"25 mg, fasted",,TEAE incidence,0%
C=CC(=O)N1CCC[C@@H](n2nc(-c3ccc(Oc4ccccc4)cc3)c3c(N)ncnc32)C1,,,MES buffer,"100 µM, 23 h, pH 5.5, 37 °C, with: cysteine 10 mM",,cysteine adduct formation,9%
O=C(Nc1nc2cccc(-c3ccc(CN4CCS(=O)(=O)CC4)cc3)n2n1)C1CC1,,item: asthenia,human rheumatoid arthritis patients,"oral, 30 mg once daily, 4 weeks, regardless of relatedness",,treatment-emergent adverse events,0%
Cc1[nH]c2ccccc2c1C1=C(Cl)C(=O)C(Cl)=C(N2CCOCC2)C1=O,,,mouse,"intraperitoneal, 14 days",,LD50,374 mg/kg
[O]=[Co].[O]=[Co][O][Co]=[O],,,"rat, male, urine, 24-h collection","oral gavage, single, 300 mg/kg (220 mg Co/kg), day 3, vehicle 0.5% HPMC",,creatinine-corrected cobalt concentration,0.0178 µg/µmol creatinine
CCCS(=O)(=O)Nc1ccc(F)c(C(=O)c2c[nH]c3ncc(-c4ccc(Cl)cc4)cc23)c1F,,one-compartment model,"tumour-bearing xenograft mouse, plasma",oral,,Vmax of saturable absorption,3500 kg/µg/h
NS(=O)(=O)c1ccc(NCC(=O)O)cc1,USP49 ZnF-UBD domain,,,,,Kd,> 1000 µM
Cn1nc([N+](=O)[O-])nc1Oc1ccccc1C(=O)N1CCOCC1,,,octanol/buffer,pH 7.4,,logD,0.44
COc1ccccc1OCC(O)CN1CCN(CC(=O)Nc2c(C)cccc2C)CC1 (stereo not shown),,,"human, plasma","oral, 60 mg/kg/day every 6 h",,trough plasma concentration,312 ng/mL
COc1cc(Nc2ncc3c(n2)-c2ccc(Cl)cc2C(c2c(F)cccc2OC)=NC3)ccc1C(=O)O,,"item: Nausea, all grades","cancer patients, phase 1/2","oral, dose not given, with: pembrolizumab",,patients with adverse event,21%
CN(CCC(=O)O)C(=O)c1ccc2c(c1)CC[C@@H]1[C@@H]2CC[C@]2(C)C(c3cncc(F)c3)=CC[C@@H]12,,,"premenopausal women, endometriosis pain, serum","60 mg twice daily, visit 5, mean",reference: baseline,total bilirubin change,0.855 mg/dL
Cc1ccc(C(=O)N(CCCN)C(c2nc3snc(C)c3c(=O)n2Cc2ccccc2)C(C)C)cc1 (stereo not shown),,item: Fatigue,human patients,"intravenous, dose not given, CTCAE grade ≥3, all doses",,patients with adverse events,5%
COc1cc2c(cc1OC)CN(CCc1ccc(NC(=O)c3cccc4c(=O)c5cccc(OC)c5[nH]c34)cc1)CC2,,,"Sprague Dawley rats, plasma","iv infusion, 0.09 mg/h/kg, 4 h",,free plasma concentration,0.52 ng/mL
C=CC(=O)Nc1cc(Nc2nccc(-c3cn(C)c4ccccc34)n2)c(OC)cc1N(C)CCN(C)C,,storage stability,human dried blood spot,"2 h, on ice, LLOQ level",,recovery,92.8%
COc1ccc2c(=O)n(C)c(-c3ccccc3)nc2c1,,,"Sprague-Dawley rat, male, kidney","oral, 30 mg/kg, 2 h",reference: kidney over plasma,tissue/plasma ratio,2.79

# For quick reference, copied from above:
SMILES,tested on,test,system,conditions,how to read,endpoint,value
Cc1[nH]c2ccccc2c1C1=C(Cl)C(=O)C(Cl)=C(N2CCOCC2)C1=O,,,mouse,"intraperitoneal, 14 days",,LD50,374 mg/kg
CN(C(=O)n1cnc(-c2ccc[n+]([O-])c2)c1)[C@H]1CC[C@H](O)CC1,,,"rat, cerebellum","oral, 10 mg/kg single dose, 4 h",,tissue concentration,7.2 ± 3.6 ng/g
COc1ccc2c(=O)n(C)c(-c3ccccc3)nc2c1,,,"Sprague-Dawley rat, male, kidney","oral, 30 mg/kg, 2 h",reference: kidney over plasma,tissue/plasma ratio,2.79
NC[C@@]1(CC(=O)O)[C@@H]2CC[C@H]3C[C@@H]2[C@@H]1C3,,,"human, mild renal impairment, plasma",dose not given,reference: normal renal function,unbound Cmax increase,4.4%
O=C(Nc1nc2cccc(-c3ccc(CN4CCS(=O)(=O)CC4)cc3)n2n1)C1CC1,,item: asthenia,human rheumatoid arthritis patients,"oral, 30 mg once daily, 4 weeks, regardless of relatedness",,treatment-emergent adverse events,0%
